Measurements collected from several papers.
Lines come from different studies, so protocols differ. ± gives the spread as reported.

SMILES	refers to	host	medium	route	dose	setting	clearance
C=C(C)C(=O)Nc1ccc(-c2c(-c3ccc(Oc4nccc(C)n4)cc3)c3c(N)ncnc3n2C)cc1		Sprague-Dawley rat		intravenous	dose not given		30 mL/min/kg
COc1cc(F)ccc1-c1ncnc(Nc2cccc(C[S@@](C)(=N)=O)c2)n1		male Wistar rat	plasma	intravenous			20 mL/min/kg
CC(=O)[CH](C(C)=O)[Pt-2]1([S+](C)C)[O]C(C)=CC(C)=[O+]1 (stereo not drawn)	platinum	rat	plasma	intravenous	dose not given		0.57 mL/h
CCCCCCCCCCCC(=O)OCN1C(=O)CCc2ccc(OCCCCN3CCN(c4cccc(Cl)c4Cl)CC3)cc21		rat Sprague Dawley female		intravenous	5 mg/kg aripiprazole equivalent	emulsion	5.33 ± 1.83 mL/min/kg
Cc1cc(/C=C2\CN(C(C)C)C/C(=C\c3cc(C)c(O)c(C)c3)C2=O)cc(C)c1O		Sprague-Dawley rat, female	plasma	intravenous	20 mg/kg		86 mL/min/kg
CN[C@@H]1[C@H](O)[C@H](NC)[C@H]2O[C@]3(O)[C@H](O[C@@H]2[C@H]1O)O[C@H](C)C[C@@]3(O)CNCc1ccc(Cl)cc1		rat		intravenous	10 mg/kg		9.67 mL/min/kg
Cc1ccc(O)c2c3c(nn12)CCC(C)(NC(=O)c1ccc(-n2cnc4cc(C(=O)O)ccc42)cc1Cl)C3 (stereo not drawn)		rat					30.4 mL/min/kg
C[Si]1(C)CNC(=O)c2ccccc21		Sprague-Dawley rat, male	plasma	intravenous	1 mg/kg		30 ± 6 mL/min/kg
Cc1cnc(Nc2cc(C)c(C)c(C)c2)nc1Nc1ccc2oc(=O)[nH]c2c1		rat	plasma	intravenous	1.0 mg/kg		18 mL/min/kg
O=C(O)/C=C/c1ccc(NC(=O)C2(NC(=O)c3ccc4c(C5CCCCC5)c5n(c4c3)CCCc3ccccc3-5)CCCC2)cc1		rat		intravenous	2 mg/kg		250 mL/min/kg
CN[C@@H]1[C@H](O)[C@H](NC)[C@H]2O[C@]3(O)[C@H](O[C@@H]2[C@H]1O)O[C@H](C)C[C@@]3(O)CNCc1ccc(F)cc1		rat		intravenous	10 mg/kg		9.33 mL/min/kg
N[C@H](COc1ccccc1C(F)(F)F)c1ccccc1		male Sprague-Dawley rat		oral	25 mg/kg		397 ± 80 mL/min/kg
O=C(O)/C=C/c1ccc(NC(=O)C2(NC(=O)c3ccc4c(C5CCCCC5)c5n(c4c3)CCCCNc3ccccc3-5)CCCC2)cc1		rat		intravenous	2 mg/kg		9 mL/min/kg
COc1cc(NC(C)=O)c2c(c1O)-c1c(OC)c(OC)cc3c1C(C2)N(C)CC3 (stereo not drawn)		male Wistar rat	plasma	intravenous	100 mg/kg		44.3 ± 8.87 mL/min/kg
CN(C)C(=O)c1ccnc(N2Cc3cn(Cc4ccc(F)cc4F)nc3C2)n1		male Sprague-Dawley rat	plasma		5 mg/kg		< 5 mL/min/kg
